{"data": "Experimental data of several laboratories", "note": "Every numbered part comes from another study and shows a few of its results, in no order. Positions count from the first letter of the parent shown."}
{"data": "Series 1", "target": "Sox-I, HMG box (Salpingoeca helianthica)", "technique": "Spec-seq", "form": "double-stranded DNA, one strand shown", "sample": "in vitro", "concentration": "not given", "setting": "whole probe, mean of replicates", "reference": "not given", "reading": "lower = stronger binding", "constant ends, left off below": "GAGTCGTCTCGTCAGCAC … CCGTAGAGCACTCAGGTC", "Construct (chain)": "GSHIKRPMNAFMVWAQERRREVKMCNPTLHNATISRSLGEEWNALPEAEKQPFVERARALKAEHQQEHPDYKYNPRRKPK"}
{"Sequence": "CATACGT", "relative binding energy [ln ratio]": 0.671}
{"Sequence": "CATAGTG", "relative binding energy [ln ratio]": 0.0317}
{"Sequence": "TACCGTT", "relative binding energy [ln ratio]": 0.32}
{"Sequence": "CCCCGTT", "relative binding energy [ln ratio]": 0.399}
{"Sequence": "CATGGCG", "relative binding energy [ln ratio]": 0.962}
{"Sequence": "GGAAGTT", "relative binding energy [ln ratio]": 1.35}
{"Sequence": "CATTTCG", "relative binding energy [ln ratio]": 1.1}
{"Sequence": "TCCGGTT", "relative binding energy [ln ratio]": 0.729}
{"data": "Series 2", "target": "Histone acetyltransferase KAT6A, both winged helices, GST fusion (KAT6A, Homo sapiens, UniProt Q92794, residues 1-181)", "technique": "protein binding microarray", "form": "double-stranded DNA, one strand shown", "sample": "in vitro", "concentration": "not given", "setting": "8-mer, flanks averaged, mean of 2 arrays, mostly near background", "reference": "not given", "reading": "higher = stronger binding", "Target sequence (chain)": "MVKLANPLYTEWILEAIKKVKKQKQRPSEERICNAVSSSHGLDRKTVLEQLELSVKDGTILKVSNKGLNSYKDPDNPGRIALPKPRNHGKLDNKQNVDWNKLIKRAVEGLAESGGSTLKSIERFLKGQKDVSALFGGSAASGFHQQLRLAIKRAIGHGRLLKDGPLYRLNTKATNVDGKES"}
{"Sequence": "GAACGCTA", "E-score": -0.0611}
{"Sequence": "CTGTAAGA", "E-score": -0.0705}
{"Sequence": "CATTAACC", "E-score": -0.00788}
{"Sequence": "GCACCTCA", "E-score": -0.0862}
{"Sequence": "AACTCAAG", "E-score": -0.0947}
{"Sequence": "AACTCATT", "E-score": -0.091}
{"Sequence": "CCCTCTGC", "E-score": -0.185}
{"Sequence": "CTCTTATA", "E-score": 0.037}
{"data": "Series 3", "target": "PABPC1L2, full length, GST fusion (mouse, UniProt A0ABA7IW68)", "technique": "RNAcompete", "form": "RNA", "sample": "in vitro", "concentration": "20 nM", "setting": "7-mer, probes averaged, single round", "reference": "mean of 7-mers", "reading": "higher = stronger binding", "Residues (chain)": "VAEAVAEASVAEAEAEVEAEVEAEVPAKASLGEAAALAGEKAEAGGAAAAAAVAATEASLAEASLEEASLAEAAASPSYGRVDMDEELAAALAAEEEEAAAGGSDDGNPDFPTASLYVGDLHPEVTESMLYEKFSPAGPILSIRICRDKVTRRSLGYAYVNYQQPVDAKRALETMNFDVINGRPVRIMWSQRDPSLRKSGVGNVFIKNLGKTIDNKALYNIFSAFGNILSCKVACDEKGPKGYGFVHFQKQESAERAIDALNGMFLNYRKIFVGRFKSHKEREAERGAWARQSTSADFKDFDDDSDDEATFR"}
{"Sequence": "UCUAUAA", "7-mer Z-score": 0.441}
{"Sequence": "UGUUGGA", "7-mer Z-score": -0.231}
{"Sequence": "GGCAUUG", "7-mer Z-score": -0.00289}
{"Sequence": "UGAUCGG", "7-mer Z-score": -0.182}
{"Sequence": "UAAGCGA", "7-mer Z-score": -0.0917}
{"Sequence": "UCAUUGG", "7-mer Z-score": -0.0699}
{"Sequence": "UUUGACA", "7-mer Z-score": -0.211}
{"Sequence": "CGCCACA", "7-mer Z-score": -0.124}
{"data": "Single results of other studies", "starting sequence": "PafA, mature enzyme, eGFP fusion (Elizabethkingia meningoseptica, UniProt Q9KJX5); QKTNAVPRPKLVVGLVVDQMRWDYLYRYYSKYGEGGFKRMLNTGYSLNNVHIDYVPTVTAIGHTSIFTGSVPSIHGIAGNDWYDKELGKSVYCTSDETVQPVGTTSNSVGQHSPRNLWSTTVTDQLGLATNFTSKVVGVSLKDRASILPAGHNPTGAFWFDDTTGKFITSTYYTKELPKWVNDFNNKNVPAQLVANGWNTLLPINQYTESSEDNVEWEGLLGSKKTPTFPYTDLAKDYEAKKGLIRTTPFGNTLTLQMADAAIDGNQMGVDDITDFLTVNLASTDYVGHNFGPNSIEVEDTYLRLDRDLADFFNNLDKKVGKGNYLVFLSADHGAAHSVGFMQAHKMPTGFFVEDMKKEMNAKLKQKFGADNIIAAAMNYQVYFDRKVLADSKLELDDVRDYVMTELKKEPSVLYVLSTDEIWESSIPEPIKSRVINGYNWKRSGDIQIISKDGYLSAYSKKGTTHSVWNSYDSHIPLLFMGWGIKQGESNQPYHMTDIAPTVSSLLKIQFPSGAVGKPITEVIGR"}
{"Variant": "K135V", "target": "tungstate, free oxyanion", "assay": "microfluidic competitive inhibition", "test system": "in vitro, cell-free expressed", "conditions": "not given, derived from inhibition constants, unchanged parent 2230 nM", "how to read": "lower = stronger binding", "measurement": "oxyanion analog dissociation constant", "result": "2.25 µM"}
